Results pooled from the literature.
Parts stem from different laboratories: compare values within a part only. Positions count from the first letter of the parent shown.

Block 1
Target: CCNF, cyclin fold, Cln2 fusion (human)
Technique: yeast growth competition, sequencing
Matrix: yeast
Setting: strong parent motif
Reference: not given
Direction: higher = stronger binding
Parent: ASZ1 docking peptide (human); GFGFLLFICKLTF; partner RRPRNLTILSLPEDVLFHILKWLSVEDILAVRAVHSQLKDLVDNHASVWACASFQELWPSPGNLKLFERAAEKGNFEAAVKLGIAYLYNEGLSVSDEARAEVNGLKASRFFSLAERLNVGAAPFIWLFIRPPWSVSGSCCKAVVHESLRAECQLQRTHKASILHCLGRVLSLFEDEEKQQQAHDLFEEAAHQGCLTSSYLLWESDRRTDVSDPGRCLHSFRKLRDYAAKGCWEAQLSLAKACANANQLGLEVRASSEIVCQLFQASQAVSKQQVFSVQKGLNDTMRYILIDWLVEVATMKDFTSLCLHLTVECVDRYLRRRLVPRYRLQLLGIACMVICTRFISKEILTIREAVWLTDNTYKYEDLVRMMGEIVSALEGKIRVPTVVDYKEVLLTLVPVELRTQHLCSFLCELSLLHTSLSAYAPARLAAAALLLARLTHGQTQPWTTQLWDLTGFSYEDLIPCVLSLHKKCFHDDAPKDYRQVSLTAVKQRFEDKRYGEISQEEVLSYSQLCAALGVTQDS
Change | normalised enrichment score
L6A | 2.46
F7A | 2.24
F2A | 2.19
L11A | 2.74
K10A | 1.77
C9A | 2.53
G1A | 2.48

Block 2
Target: CREB3, bZIP domain (human)
Technique: DHFR protein complementation
Matrix: yeast
Setting: single substitutions, most at no-binding floor
Reference: wild-type JUN-FOS pair
Direction: higher = stronger binding
Parent: JUN, bZIP domain (human); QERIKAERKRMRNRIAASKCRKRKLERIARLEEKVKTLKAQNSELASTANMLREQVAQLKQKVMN; partner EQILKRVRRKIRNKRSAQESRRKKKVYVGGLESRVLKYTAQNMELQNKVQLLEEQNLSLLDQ
Change | binding fitness
Q55E | -1.53 natural log
A49T | -1.51 natural log
M51K | -1.5 natural log
N42A | -1.47 natural log
L45N | -1.51 natural log
A40F | -1.49 natural log
L31R | -1.47 natural log
A29K | -1.46 natural log
L52A | -1.52 natural log
E44N | -1.44 natural log
E33S | -1.48 natural log
K36H | -1.39 natural log
L31M | -1.46 natural log
L45F | -1.44 natural log
L52F | -1.52 natural log

Block 3
Target: ABI1, truncated, D143A, DHFR fusion (Arabidopsis thaliana)
Technique: DHFR PCA, deep sequencing
Matrix: yeast
Setting: methotrexate growth selection, single substitutions
With: (+)-ABA 0.0091 µM
Reference: wild-type fitted maximum
Direction: higher = stronger binding
Parent: PYL1, truncated, DHFR fusion (Arabidopsis thaliana); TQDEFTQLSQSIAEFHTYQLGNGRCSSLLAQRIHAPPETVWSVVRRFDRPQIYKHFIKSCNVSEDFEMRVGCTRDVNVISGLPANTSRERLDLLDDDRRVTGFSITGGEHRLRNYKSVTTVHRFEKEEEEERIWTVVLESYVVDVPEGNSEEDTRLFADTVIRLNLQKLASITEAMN
Change | relative binding score
D75Q | 18.6%
R45C | -2.54%
E151L | 23.5%
D144C | -2.6%
F15N | -0.966%
D3R | 14.9%
L91V | 8.23%
R69F | -0.662%
T135E | -4.54%
R99F | 68.9%
F157I | -1.36%
A30N | 2.97%
V78R | 33.6%

Block 4
Target: RING finger protein unkempt homolog, zinc fingers 1-6, GST-SBP tag (UNK, Homo sapiens, UniProt Q9C0B0, residues 30-357)
Technique: RNA Bind-n-Seq
Molecule type: RNA
Matrix: in vitro
Tested at: not given
Setting: RNA with constant flanks, human and mouse sites, ends assumed
Reference: input RNA pool
Direction: higher = stronger binding
All sequences stand within: GGGAGUUCUACAGUCCGACGAUC … CAACAGAGGAUUGAGCAUCA
Residues (chain): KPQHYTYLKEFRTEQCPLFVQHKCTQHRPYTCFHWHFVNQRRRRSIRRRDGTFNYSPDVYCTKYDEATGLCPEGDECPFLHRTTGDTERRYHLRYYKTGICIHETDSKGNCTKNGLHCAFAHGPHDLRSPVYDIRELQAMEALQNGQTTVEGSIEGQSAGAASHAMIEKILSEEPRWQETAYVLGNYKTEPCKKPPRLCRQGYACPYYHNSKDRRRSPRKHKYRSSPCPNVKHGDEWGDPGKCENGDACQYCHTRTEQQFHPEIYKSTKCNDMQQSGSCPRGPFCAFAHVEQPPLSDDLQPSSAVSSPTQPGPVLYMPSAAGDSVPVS
Sequence | bound/input enrichment [ratio]
UGGGUAUCCCUGGUCAGUAAGAAUUAUGAGAUUGAACGGACUAUUGUUCAGCUAGAAAAUGAAAUCUAUCAAAUUAAGCAGCAACAUGGAGAGGCAAACAAAGAAAACAUCCGGCAAGAC | 0.975
UGAUAAAACUGACUGUAAAUUAAUUUGGGGAAAGCCAGUAUUGUUAAAAUACCAUUUUAUACAAAAUAAAAAGCUGCUCUCACUGUCAGCUCUCAUAUUCUUCCAGGUUUUGCACUCUAC | 0.233
UUGGAGCAGCCAAUAGUCGUGCAGAGCGUGGGCACUGAUGGCCGUGUCUUCCAGUUCCUGGUGCUGCAGUUGAACACCACAGAUCUGGCUUCUAGCGAGGGCGUCAAGAAUUUGGUAUGG | 0.218
UGUUACACACAGGUUAAAGUAGUAAAAUUUUCCUAUAUGUGGACCAUUAAUAACUUCAGUUUUUGUCGAGAGGAAAUGGGUGAAGUGUUAAAAAGUUCAACAUUUUCAUCUGGCCCAAGU | 0.479
AUUAAGCAGAGGACUAAGUUGGAGCUUAAAGCCAAGGAUUUACAAGAUGAACUAGCAGGCAAUAGUGAACAAAGGAAACGUUUAUUAAAAGAGAGGCAGAAGCUGCUUGAAAAAAUAGAA | 1.07
AUCACUAUUGGAUCCAUCUCUUUCCUUCUGGGAGUUGUACUGCUAGUAAUUAAUCAUAAAUAUAGAAACAGUAGUAACACUGCUGACAUCACCAUUUAAUUUUAUAUUCUGAAACCAAAU | 2.66
GAGGAGGGCAAGGAGAUCCUGGUAGGAGAUGUGGGGCAGACUGUGGACGACCCCUACACCACUUUUGUCAAGAUGCUGCCAGACAAGGACUGCCGCUAUGCACUCUAUGAUGCAACCUAU | 0.185
AUCUAGGCACUCAAGAUCUCGGAGCAGGCACAGAUUGUCUAGAUCAAGAAGUCGUCAUUCAAGCAUUUCUCCUAGCACACUAACUCUGAAGAGUAGCUUGGCAGCUGAAUUGAACAAGAA | 0.0935

Repeated from above (block 2):
Change | binding fitness
E33S | -1.48 natural log
A29K | -1.46 natural log
L45N | -1.51 natural log
